Assay results of several laboratories.
A part holds a random share of what one study measured. ± marks the error that the study gave.
Chain of UniProt P49761 (whole entry, looked up): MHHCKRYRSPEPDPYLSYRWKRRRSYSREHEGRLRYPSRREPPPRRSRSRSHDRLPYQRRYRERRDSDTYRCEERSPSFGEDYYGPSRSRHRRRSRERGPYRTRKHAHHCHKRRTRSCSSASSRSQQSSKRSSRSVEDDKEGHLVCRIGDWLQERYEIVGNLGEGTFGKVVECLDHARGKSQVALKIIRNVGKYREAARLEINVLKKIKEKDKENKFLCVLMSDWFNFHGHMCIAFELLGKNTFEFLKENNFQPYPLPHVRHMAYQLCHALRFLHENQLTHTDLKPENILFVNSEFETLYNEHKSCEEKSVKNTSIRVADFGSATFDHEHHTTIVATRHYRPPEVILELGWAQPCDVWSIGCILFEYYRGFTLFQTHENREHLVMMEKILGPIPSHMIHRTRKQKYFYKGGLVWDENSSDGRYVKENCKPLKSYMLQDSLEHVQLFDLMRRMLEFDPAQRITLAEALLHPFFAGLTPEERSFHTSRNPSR
Chain of UniProt O75676 (whole entry, looked up): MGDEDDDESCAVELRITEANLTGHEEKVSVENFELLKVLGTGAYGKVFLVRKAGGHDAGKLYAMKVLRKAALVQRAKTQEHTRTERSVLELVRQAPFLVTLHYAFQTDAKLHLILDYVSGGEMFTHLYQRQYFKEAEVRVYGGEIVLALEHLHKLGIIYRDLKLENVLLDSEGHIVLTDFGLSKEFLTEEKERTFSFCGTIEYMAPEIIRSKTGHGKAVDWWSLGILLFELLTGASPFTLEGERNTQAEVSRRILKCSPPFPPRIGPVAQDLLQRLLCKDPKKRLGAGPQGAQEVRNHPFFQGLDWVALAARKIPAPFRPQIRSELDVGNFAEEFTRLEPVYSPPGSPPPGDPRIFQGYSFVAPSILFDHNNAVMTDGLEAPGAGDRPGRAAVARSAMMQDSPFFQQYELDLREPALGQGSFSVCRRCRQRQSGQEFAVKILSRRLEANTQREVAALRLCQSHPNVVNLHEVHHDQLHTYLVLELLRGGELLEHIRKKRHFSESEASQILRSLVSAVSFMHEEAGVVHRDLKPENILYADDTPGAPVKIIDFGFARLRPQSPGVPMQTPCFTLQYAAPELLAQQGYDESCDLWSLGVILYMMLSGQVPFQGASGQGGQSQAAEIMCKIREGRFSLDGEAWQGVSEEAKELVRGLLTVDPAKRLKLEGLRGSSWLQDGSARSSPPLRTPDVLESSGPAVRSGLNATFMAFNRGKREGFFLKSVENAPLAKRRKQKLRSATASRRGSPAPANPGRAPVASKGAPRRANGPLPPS
Chain of UniProt P51955 (whole entry, looked up): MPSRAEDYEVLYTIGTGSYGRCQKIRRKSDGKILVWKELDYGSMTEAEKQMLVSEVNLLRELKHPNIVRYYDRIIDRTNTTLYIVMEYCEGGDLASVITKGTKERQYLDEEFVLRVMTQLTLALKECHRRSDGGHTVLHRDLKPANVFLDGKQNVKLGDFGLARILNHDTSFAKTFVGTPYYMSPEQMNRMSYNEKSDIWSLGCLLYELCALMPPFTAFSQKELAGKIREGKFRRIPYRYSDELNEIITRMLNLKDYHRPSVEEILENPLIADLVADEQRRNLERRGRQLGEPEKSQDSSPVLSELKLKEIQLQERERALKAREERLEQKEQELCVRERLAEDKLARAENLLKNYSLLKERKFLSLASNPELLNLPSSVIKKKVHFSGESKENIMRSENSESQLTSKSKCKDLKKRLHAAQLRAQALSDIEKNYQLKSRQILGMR
Chain of UniProt Q9Y5S2 (whole entry, looked up): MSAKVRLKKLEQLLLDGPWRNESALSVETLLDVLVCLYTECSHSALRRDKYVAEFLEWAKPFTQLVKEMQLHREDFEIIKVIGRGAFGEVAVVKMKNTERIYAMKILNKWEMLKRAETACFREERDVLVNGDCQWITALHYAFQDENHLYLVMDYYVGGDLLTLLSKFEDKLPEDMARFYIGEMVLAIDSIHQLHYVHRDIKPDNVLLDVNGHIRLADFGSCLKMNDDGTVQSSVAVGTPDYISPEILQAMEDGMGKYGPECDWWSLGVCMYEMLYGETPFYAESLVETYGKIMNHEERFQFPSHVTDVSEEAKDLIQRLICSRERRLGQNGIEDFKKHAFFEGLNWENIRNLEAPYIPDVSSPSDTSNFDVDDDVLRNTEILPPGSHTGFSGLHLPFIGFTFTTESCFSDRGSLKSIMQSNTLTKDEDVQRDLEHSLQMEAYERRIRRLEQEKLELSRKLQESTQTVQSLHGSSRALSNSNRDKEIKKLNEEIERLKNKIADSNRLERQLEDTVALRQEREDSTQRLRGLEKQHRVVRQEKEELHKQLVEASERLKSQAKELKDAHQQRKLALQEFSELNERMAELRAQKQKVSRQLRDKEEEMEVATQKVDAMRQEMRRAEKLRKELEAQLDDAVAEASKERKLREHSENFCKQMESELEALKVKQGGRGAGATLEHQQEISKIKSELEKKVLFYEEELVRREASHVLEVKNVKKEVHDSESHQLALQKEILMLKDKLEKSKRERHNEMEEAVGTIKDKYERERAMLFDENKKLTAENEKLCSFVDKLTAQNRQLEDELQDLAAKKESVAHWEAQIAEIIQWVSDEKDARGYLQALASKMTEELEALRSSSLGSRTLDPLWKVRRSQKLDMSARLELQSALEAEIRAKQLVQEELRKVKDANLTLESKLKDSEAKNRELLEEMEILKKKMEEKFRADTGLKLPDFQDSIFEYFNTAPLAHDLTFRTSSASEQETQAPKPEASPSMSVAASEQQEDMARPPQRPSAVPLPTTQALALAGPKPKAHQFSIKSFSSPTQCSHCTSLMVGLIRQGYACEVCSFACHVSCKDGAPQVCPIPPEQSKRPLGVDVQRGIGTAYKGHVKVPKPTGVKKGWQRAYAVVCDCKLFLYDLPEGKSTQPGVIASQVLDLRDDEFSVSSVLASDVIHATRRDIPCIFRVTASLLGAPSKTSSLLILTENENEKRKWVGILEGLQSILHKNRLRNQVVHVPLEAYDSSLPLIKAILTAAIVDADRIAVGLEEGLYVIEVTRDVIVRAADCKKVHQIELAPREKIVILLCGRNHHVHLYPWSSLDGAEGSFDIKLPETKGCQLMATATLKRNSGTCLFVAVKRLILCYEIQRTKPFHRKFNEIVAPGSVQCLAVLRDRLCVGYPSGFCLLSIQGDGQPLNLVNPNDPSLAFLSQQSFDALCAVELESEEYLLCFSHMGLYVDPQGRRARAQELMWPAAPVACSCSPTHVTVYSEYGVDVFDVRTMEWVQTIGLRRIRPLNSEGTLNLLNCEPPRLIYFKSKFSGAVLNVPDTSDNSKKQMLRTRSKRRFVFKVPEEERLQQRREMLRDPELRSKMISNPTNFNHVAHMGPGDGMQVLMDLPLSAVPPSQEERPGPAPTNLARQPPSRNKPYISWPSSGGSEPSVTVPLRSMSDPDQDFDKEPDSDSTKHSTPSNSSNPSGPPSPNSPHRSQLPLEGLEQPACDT
Chain of UniProt Q9H4B4 (whole entry, looked up): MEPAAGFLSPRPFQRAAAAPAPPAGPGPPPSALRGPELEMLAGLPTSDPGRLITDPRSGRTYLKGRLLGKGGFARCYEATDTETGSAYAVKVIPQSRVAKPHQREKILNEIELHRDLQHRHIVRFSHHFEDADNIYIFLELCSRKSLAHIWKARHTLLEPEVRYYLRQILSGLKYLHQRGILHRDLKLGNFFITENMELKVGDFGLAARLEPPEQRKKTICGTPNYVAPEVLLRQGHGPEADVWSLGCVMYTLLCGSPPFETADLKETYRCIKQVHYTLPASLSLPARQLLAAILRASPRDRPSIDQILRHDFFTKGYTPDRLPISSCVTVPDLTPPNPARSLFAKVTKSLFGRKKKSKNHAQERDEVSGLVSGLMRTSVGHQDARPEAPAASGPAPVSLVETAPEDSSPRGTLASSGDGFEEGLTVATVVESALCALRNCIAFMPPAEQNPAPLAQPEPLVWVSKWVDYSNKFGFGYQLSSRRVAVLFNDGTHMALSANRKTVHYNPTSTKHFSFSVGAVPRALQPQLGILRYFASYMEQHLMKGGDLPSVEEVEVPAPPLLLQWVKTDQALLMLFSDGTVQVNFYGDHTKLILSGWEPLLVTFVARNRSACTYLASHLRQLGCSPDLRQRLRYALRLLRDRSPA
Chain of UniProt Q9HAZ1 (whole entry, looked up): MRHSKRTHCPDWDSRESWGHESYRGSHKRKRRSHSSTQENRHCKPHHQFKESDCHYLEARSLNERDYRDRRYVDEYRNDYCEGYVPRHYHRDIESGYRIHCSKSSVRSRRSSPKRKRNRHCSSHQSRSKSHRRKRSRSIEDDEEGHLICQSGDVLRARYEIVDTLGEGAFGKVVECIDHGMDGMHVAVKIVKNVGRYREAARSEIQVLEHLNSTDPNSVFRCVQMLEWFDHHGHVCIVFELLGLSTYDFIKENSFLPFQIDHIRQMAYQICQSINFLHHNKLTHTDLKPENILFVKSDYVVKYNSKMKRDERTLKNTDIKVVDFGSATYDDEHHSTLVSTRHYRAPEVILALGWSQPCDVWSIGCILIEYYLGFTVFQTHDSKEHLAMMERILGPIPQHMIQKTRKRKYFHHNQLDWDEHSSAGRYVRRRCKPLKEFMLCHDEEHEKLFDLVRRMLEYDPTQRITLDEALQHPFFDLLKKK
Chain of UniProt Q6P2M8 (whole entry, looked up): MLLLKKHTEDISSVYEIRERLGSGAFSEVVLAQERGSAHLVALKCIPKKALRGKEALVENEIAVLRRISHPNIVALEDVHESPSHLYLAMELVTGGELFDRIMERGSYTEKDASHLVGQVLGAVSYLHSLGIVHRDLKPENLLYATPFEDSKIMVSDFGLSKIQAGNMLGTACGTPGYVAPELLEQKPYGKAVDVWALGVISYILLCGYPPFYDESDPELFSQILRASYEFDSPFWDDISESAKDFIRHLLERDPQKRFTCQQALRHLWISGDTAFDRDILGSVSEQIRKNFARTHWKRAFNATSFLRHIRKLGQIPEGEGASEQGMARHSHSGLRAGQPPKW

Block 1 — effect on: cell-free assay; method: competition with immobilised ligand; tested at: 1 µM
SMILES: NS(=O)(=O)c1cc(NC(=O)Cc2ccccc2)ccc1Oc1cccc(Cl)c1
The remaining binding was 52% (Serine/threonine-protein kinase ULK2 (ULK2, Homo sapiens, UniProt Q8IYT8)).
It gave 84% for remaining binding (Ribosomal protein S6 kinase alpha-6, N-terminal kinase domain (RPS6KA6, Homo sapiens, UniProt Q9UK32)).
It gave 100% for remaining binding (Phosphatidylinositol 4-phosphate 5-kinase type-1 gamma (PIP5K1C, Homo sapiens, UniProt O60331)).
It gave 100% for remaining binding (Mitogen-activated protein kinase kinase kinase 20 (MAP3K20, Homo sapiens, UniProt Q9NYL2)).
It gave 89% for remaining binding (Serine/threonine-protein kinase Nek2 (NEK2, Homo sapiens, UniProt P51955)).

Block 2 — effect on: kinase activity
SMILES: COc1cc(C(=O)N2CCC(N3CCN(C)CC3)CC2)ccc1Nc1ncc2c(n1)N(C)c1ccccc1C(=O)N2C
IR; 10 µM — remaining activity: 103 ± 3%.
AMPK; 10 µM — remaining activity: 46 ± 1%.
For PIM1; 1 µM: remaining activity read 94 ± 5%.
It gave 53% for remaining activity (MNK1; 10 µM).
It gave 95 ± 3% for remaining activity (GSK3B; 10 µM).
RSK1; 1 µM — remaining activity: 97 ± 3%.
For TAK1; 10 µM: remaining activity read 82 ± 3%.
For PKBa; 10 µM: remaining activity read 81 ± 6%.

Block 3 — organism: Sarcocystis neurona; effect on: parasite growth; tested at: 10 µM; time: 96 h; setting: first screen; reference: untreated
`Nc1nnc(-c2cccc(Cl)c2Cl)c(N)n1`: “log2 fold change” 0.19.
`CC(C)(C)NC(=O)[C@@H]1CN(Cc2cccnc2)CCN1C[C@@H](O)C[C@@H](Cc1ccccc1)C(=O)N[C@H]1c2ccccc2C[C@H]1O`: “log2 fold change” 0.23.
Under “log2 fold change”, `NNC(=O)c1ccncc1` is recorded as 0.34.
`CCCNC(C)C(=O)Nc1ccccc1C` (stereo not drawn) — result for “log2 fold change”: 0.06.
Under “log2 fold change”, `CCCC(CCC)C(=O)O` is recorded as 0.3.
Under “log2 fold change”, `Nc1ccc(S(=O)(=O)c2ccc(N)cc2)cc1` is recorded as 0.28.
For `CO/N=C(\C(=O)N[C@@H]1C(=O)N2C(C(=O)O)=C(COC(N)=O)CS[C@H]12)c1ccco1`, “log2 fold change” read 0.0107.
Under “log2 fold change”, `CC(C(O)c1ccc(O)cc1)N1CCC(Cc2ccccc2)CC1` (stereo not drawn) is recorded as -0.12.

Block 4 — effect on: enzyme activity; action: inhibitor; tested at: 0.5 µM; reference: control
SMILES: CSc1nc(-c2ccnc(N[C@@H](C)c3ccccc3)c2)c(-c2ccc(F)cc2)[nH]1 (racemic)
For Serine/threonine-protein kinase PLK3 (PLK3, Homo sapiens, UniProt Q9H4B4): remaining activity read 99.7%.
It gave 92.9% for remaining activity (Calcium/calmodulin-dependent protein kinase type 1B (PNCK, Homo sapiens, UniProt Q6P2M8)).
Dual specificity protein kinase CLK3 (CLK3, Homo sapiens, UniProt P49761) — remaining activity: 85.4%.
It gave 91.1% for remaining activity (Cyclin-dependent kinase 9, with cyclin K (CDK9, Homo sapiens, UniProt P50750)).
The remaining activity was 91.7% (Rho-associated protein kinase 1 (ROCK1, Homo sapiens, UniProt Q13464)).
It gave 100% for remaining activity (Myosin-IIIb (MYO3B, Homo sapiens, UniProt Q8WXR4)).
The remaining activity was 116% (Hepatocyte growth factor receptor (MET, Homo sapiens, UniProt P08581)).
It gave 106% for remaining activity (Calcium/calmodulin-dependent protein kinase type IV (CAMK4, Homo sapiens, UniProt Q16566)).
The remaining activity was 102% (cGMP-dependent protein kinase 2 (PRKG2, Homo sapiens, UniProt Q13237)).
The remaining activity was 102% (Mitogen-activated protein kinase 1 (MAPK1, Homo sapiens, UniProt P28482)).
It gave 96.5% for remaining activity (Ribosomal protein S6 kinase alpha-4 (RPS6KA4, Homo sapiens, UniProt O75676)).
For Vascular endothelial growth factor receptor 2 (KDR, Homo sapiens, UniProt P35968): remaining activity read 83.5%.
It gave 98.8% for remaining activity (Serine/threonine-protein kinase MRCK beta (CDC42BPB, Homo sapiens, UniProt Q9Y5S2)).
MAP/microtubule affinity-regulating kinase 4 (MARK4, Homo sapiens, UniProt Q96L34) — remaining activity: 74.6%.
The remaining activity was 92.7% (Serine/threonine-protein kinase DCLK2 (DCLK2, Homo sapiens, UniProt Q8N568)).
It gave 89.6% for remaining activity (Misshapen-like kinase 1 (MINK1, Homo sapiens, UniProt Q8N4C8)).
Dual specificity mitogen-activated protein kinase kinase 1 (MAP2K1, Homo sapiens, UniProt Q02750) — remaining activity: 93.9%.
The remaining activity was 79.2% (Dual specificity protein kinase CLK4 (CLK4, Homo sapiens, UniProt Q9HAZ1)).
